{"data": "Results gathered from unrelated publications", "note": "A part holds a random share of what one study measured. Positions count from the first letter of the parent shown."}
{"data": "Block 1", "target": "Sal-like protein 4, full length isoform B (SALL4, Homo sapiens, UniProt Q9UJQ4-2, residues 1-616)", "method": "universal PBM", "form": "double-stranded DNA, one strand shown", "matrix": "in vitro", "tested at": "not given", "setting": "8-mer, flanks averaged, mean of replicates", "reading": "higher = stronger binding", "Residues (chain)": "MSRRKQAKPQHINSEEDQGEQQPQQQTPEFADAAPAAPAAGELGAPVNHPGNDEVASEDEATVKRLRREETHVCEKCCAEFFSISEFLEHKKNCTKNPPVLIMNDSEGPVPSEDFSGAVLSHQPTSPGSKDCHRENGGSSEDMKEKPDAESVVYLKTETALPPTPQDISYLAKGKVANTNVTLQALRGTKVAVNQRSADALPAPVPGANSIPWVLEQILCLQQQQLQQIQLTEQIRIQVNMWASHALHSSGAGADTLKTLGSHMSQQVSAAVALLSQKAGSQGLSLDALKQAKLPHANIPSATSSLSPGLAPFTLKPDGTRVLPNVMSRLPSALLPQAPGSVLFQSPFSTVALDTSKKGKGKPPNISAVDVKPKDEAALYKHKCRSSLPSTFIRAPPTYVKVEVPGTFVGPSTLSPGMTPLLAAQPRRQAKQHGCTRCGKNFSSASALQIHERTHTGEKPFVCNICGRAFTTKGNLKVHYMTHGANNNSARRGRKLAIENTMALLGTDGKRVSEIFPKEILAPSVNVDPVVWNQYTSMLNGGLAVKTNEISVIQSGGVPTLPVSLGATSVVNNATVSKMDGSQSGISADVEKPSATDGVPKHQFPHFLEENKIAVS"}
{"Oligonucleotide": "AGTAGCAG", "E-score": 0.0526}
{"Oligonucleotide": "AGTCATCA", "E-score": -0.0415}
{"Oligonucleotide": "GCTATACC", "E-score": -0.112}
{"Oligonucleotide": "AAGGTTAA", "E-score": 0.116}
{"Oligonucleotide": "TCCCGCCA", "E-score": -0.174}
{"data": "Block 2", "target": "CCNA1, cyclin fold, Cln2 fusion (human)", "method": "yeast growth competition, sequencing", "matrix": "yeast", "setting": "weak parent motif", "reference": "not given", "reading": "higher = stronger binding", "starting sequence": "ORC1 docking peptide (human); PRARKRLELGNLG; partner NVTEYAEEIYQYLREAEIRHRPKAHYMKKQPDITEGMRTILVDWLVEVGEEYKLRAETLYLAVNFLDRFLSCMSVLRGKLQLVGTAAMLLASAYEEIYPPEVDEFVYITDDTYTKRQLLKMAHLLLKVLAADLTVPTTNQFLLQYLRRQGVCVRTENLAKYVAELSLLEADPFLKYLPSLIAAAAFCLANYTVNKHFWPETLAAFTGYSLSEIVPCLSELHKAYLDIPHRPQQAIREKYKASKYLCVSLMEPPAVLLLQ"}
{"Change": "K5V", "normalised enrichment score": 0.19}
{"Change": "N11R", "normalised enrichment score": 0.43}
{"Change": "K5A", "normalised enrichment score": 0.252}
{"Change": "G13Q", "normalised enrichment score": 0.711}
{"data": "Block 3", "target": "Phosphate system positive regulatory protein PHO4, full length, GST-tagged (PHO4, Saccharomyces cerevisiae, UniProt P07270, residues 1-312)", "method": "competition protein-binding microarray", "form": "double-stranded DNA, one strand shown", "matrix": "in vitro", "tested at": "2 µM", "setting": "whole 60-bp probe, lowest competitor level", "together with": "Cbf1 competitor, 0.05 µM", "reading": "higher = stronger binding", "all sequences stand within": "… GTCTTGATTCGCTTGACGCTGCTG", "Residues (chain)": "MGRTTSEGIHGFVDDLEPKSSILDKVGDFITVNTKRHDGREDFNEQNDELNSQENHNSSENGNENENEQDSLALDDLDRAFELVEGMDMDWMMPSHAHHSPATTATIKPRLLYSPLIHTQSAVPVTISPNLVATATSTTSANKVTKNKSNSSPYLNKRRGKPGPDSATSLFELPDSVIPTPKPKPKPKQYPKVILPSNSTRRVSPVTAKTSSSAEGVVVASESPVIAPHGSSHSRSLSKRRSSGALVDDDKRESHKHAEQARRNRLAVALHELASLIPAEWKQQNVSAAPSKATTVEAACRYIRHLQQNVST"}
{"Oligonucleotide": "AAATTACTAAGTTGATGCGTGGGTGACGCCGTATGA", "fluorescence intensity": "8230 a.u."}
{"Oligonucleotide": "CGGGGTTAAGTTTGCTGTGTGGGTGGCTTGCAGCAG", "fluorescence intensity": "5380 a.u."}
{"Oligonucleotide": "GTCAGAAAGCCGGGTAAGGTGTGCCAGCGAGAGTAA", "fluorescence intensity": "5510 a.u."}
{"Oligonucleotide": "TTGGGTTTCAACGTTTCCGTGGGTATGGGTCCACAA", "fluorescence intensity": "5390 a.u."}
{"Oligonucleotide": "CGGGGTTAAGTTTGTACCGTGGGTGGCTTGCAGCAG", "fluorescence intensity": "5990 a.u."}
{"Oligonucleotide": "AAATTACTAAGTTGTACTGTGGGTGACGCCGTATGA", "fluorescence intensity": "4170 a.u."}
{"data": "Single results of other studies"}
{"Substance": "PhoQ, residues 284 288 289 292 302 303 SASVAL", "target": "PhoP, residues 12 14 15 18 19 LWHVM (Escherichia coli, UniProt P23836)", "test": "Sort-seq, refers to: YFP reporter", "system": "E. coli", "setting": "PhoQ-PhoP variant library, together with: 10 µM Mg2+", "scale": "reference: high Mg2+ state, higher = stronger signaling", "endpoint": "fold induction", "result": 7.1}
{"note": "Repeated from above (single results of other studies):"}
{"Substance": "PhoQ, residues 284 288 289 292 302 303 SASVAL", "target": "PhoP, residues 12 14 15 18 19 LWHVM (Escherichia coli, UniProt P23836)", "test": "Sort-seq, refers to: YFP reporter", "system": "E. coli", "setting": "PhoQ-PhoP variant library, together with: 10 µM Mg2+", "scale": "reference: high Mg2+ state, higher = stronger signaling", "endpoint": "fold induction", "result": 7.1}
